# Results pooled from the literature.
# Protocols differ between the studies behind these lines. Numbers after ± are the reported error.
# B1: enzyme (Bacillus pumilus, UniProt A8FFI9); chain EARSIAWSVDEFFKNREGTFVIQEVKEKSPWVYNKKRAKERFAPQSTFKVANALIGLQTGAVRDEYDIKYWDGVKREIDNWNRDHTLGSGMRDSVVWYYQAMARDIGEERMNHWVKAIHYGNKDISGGIDQFWLSSTLRISPIEQVRFLKQLYEETLPFDLKNMRTVKRMMVQEEEKHATLYGKTGSGSDIGWYVGFIKHEHKTYILATNIKGTGIEAKDITYRILKKYHLMEASV
# B2: UGT1A9 (Homo sapiens, UniProt O60656); chain GKLLVVPMDGSHWFTMRSVVEKLILRGHEVVVVMPEVSWQLGRSLNCTVKTYSTSYTLEDLDREFKAFAHAQWKAQVRSIYSLLMGSYNDIFDLFFSNCRSLFKDKKLVEYLKESSFDAVFLDPFDNCGLIVAKYFSLPSVVFARGILCHYLEEGAQCPAPLSYVPRILLGFSDAMTFKERVRNHIMHLEEHLLCHRFFKNALEIASEILQTPVTEYDLYSHTSIWLLRTDFVLDYPKPVMPNMIFIGGINCHQGKPLPMEFEAYINASGEHGIVVFSLGSMVSEIPEKKAMAIADALGKIPQTVLWRYTGTRPSNLANNTILVKWLPQNDLLGHPMTRAFITHAGSHGVYESICNGVPMVMMPLFGDQMDNAKRMETKGAGVTLNVLEMTSEDLENALKAVINDKSYKENIMRLSSLHKDRPVEPLDLAVFWVEFVMRHKGAPHLRPAAHDLTWYQYHSLDVIGFLLAVVLTVAFITFKCCAYGYRKCLGKKGRVKKAHKSKTH
# UniProt Q9UNE7, sequence (whole entry, looked up): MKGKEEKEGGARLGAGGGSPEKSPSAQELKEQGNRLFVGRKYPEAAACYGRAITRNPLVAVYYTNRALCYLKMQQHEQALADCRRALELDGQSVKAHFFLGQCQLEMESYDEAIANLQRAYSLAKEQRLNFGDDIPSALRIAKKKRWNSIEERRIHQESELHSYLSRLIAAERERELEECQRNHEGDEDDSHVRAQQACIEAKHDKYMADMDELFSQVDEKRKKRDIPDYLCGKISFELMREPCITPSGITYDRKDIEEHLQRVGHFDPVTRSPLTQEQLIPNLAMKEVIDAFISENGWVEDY
# UniProt P08473, sequence (whole entry, looked up): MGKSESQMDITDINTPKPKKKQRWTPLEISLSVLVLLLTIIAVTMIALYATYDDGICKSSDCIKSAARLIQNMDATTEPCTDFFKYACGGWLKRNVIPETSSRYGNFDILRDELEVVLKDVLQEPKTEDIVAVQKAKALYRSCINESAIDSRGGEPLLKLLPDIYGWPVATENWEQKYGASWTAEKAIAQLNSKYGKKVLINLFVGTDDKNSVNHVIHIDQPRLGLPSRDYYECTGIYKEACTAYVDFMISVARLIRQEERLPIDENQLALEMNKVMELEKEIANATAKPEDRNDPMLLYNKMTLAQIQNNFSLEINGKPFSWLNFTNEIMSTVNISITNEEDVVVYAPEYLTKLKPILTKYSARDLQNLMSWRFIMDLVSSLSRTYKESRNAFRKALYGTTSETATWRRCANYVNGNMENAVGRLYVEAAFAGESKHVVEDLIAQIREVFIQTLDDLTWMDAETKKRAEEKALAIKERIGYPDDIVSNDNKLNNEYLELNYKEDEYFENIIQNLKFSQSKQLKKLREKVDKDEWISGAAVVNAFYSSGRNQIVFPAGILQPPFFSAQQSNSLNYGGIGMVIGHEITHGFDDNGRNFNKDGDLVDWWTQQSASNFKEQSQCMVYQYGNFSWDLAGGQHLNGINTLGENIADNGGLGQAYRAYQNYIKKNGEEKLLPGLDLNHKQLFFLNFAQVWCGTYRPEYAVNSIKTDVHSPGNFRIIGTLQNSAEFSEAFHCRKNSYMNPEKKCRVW
Substance,target or system,assay,test system,conditions,scale,measurement,value
CC(C)[C@H](NC(=O)[C@@H]1CCCN1C(=O)[C@H](CCCNC(=N)N)NC(=O)[C@H](CS)NC(=O)[C@H](Cc1c[nH]c2ccccc12)NC(=O)[C@H](CCCNC(=N)N)NC(=O)[C@@H](Cc1ccccc1)NC(=O)[C@H](Cc1c[nH]cn1)NC(=O)[C@H](CCC(=O)O)NC(=O)[C@H](CS)NC(=O)[C@H](CS)NC(=O)[C@H](CCCCN)NC(=O)[C@@H]1CC(=O)N[C@@H](CCCNC(=N)N)C(=O)N[C@@H](C)C(=O)N[C@@H](CC(=O)O)C(=O)N[C@H](Cc2ccc(O)cc2)C(=O)N1)C(N)=O [technetium-99m labelled],,,"C57 mice, stomach","intravenous, 0.037 MBq, 0.5 h",,tissue uptake,2.5 ± 0.16 %ID/g
rnpA F107W (Bacillus subtilis),,"NMR, refers to: His105",,"25 °C, 0.50 M NaCl, folded, sulfate-bound, numbering of the source, with: sulfate 20 mM",,pKa,5.61
B1 (enzyme),CC1(C)S[C@@H]2[C@H](NC(=O)[C@H](N)c3ccccc3)C(=O)N2[C@H]1C(=O)O,steady-state kinetics,,pH 7,,kcat/Km,2.1e+06 ± 300000 M⁻¹ s⁻¹
Neuropeptide Y,"Neprilysin (MME, Homo sapiens, UniProt P08473)",LC-MS,,"10 µM, 1 h, pH 7.4, BSA 0.1%, with: neprilysin 10 ng/mL",,remaining compound,decreased
B2 (UGT1A9),Oc1ccc(C2CCCC2)cc1,steady-state kinetics,,"pH 7.4, 37 °C",,Km,18.2 µM
Insulin human,,ELISA,"rat, brainstem","intranasal, 20 µg per nostril, 15 min",,concentration,258 ± 176 pg/mg tissue
human Hsc70,"E3 ubiquitin-protein ligase CHIP (STUB1, Homo sapiens, UniProt Q9UNE7)","binder, biolayer interferometry",,"pH 7.4, 25 °C",,koff,0.006 ± 0.001 s⁻¹
insulin degludec,,ELISA,"human severe renal impairment, serum","dose not given, single dose",baseline: impaired over normal renal function,AUC(0-inf) ratio,1.19
CSCC[C@H](NC(=O)[C@H](CC(C)C)NC(=O)[C@H](Cc1c[nH]cn1)NC(=O)CNC(=O)[C@@H](NC(=O)[C@H](C)NC(=O)[C@H](Cc1c[nH]c2ccccc12)NC(=O)[C@H](CCC(N)=O)NC(=O)CCCCCNC(=O)[C@H](CCC(=O)NCCCC[C@@H]1NC(=O)[C@@H](Cc2ccc(O)cc2)NC(=O)[C@H](CC(=O)O)NC(=O)CNC(=O)[C@H](CCCNC(=N)N)NC1=O)NC(=O)CN1CCN(CC(=O)O)CCN(CC(=O)O)CC1)C(C)C)C(N)=O [copper-64 labelled],,,"ICR SCID mouse, female, kidneys","intravenous, 750 kBq, 1 h",,tissue uptake,4.65 ± 0.78 %ID/g

# A few entries again:
Substance,target or system,assay,test system,conditions,scale,measurement,value
CSCC[C@H](NC(=O)[C@H](CC(C)C)NC(=O)[C@H](Cc1c[nH]cn1)NC(=O)CNC(=O)[C@@H](NC(=O)[C@H](C)NC(=O)[C@H](Cc1c[nH]c2ccccc12)NC(=O)[C@H](CCC(N)=O)NC(=O)CCCCCNC(=O)[C@H](CCC(=O)NCCCC[C@@H]1NC(=O)[C@@H](Cc2ccc(O)cc2)NC(=O)[C@H](CC(=O)O)NC(=O)CNC(=O)[C@H](CCCNC(=N)N)NC1=O)NC(=O)CN1CCN(CC(=O)O)CCN(CC(=O)O)CC1)C(C)C)C(N)=O [copper-64 labelled],,,"ICR SCID mouse, female, kidneys","intravenous, 750 kBq, 1 h",,tissue uptake,4.65 ± 0.78 %ID/g
